Experimental data of several laboratories.
Each line is one published result; not all experiments were run side by side. Values joined by “and” are separate records of one study, mostly repeats; a detail may differ. ± marks the error that the study gave.

CC[C@H](C)[C@H](NC(=O)CNC(=O)[C@H](Cc1c[nH]cn1)NC(=O)[C@H](CC(C)C)NC(=O)CNC(=O)[C@H](CC(C)C)NC(=O)[C@H](CCCCN)NC(=O)[C@H](Cc1ccccc1)NC(=O)[C@H](CC(C)C)NC(=O)[C@H](CCCCN)NC(=O)CNC(=O)[C@H](Cc1c[nH]c2ccccc12)NC(=O)[C@H](Cc1ccccc1)NC(=O)CN)C(=O)NCC(=O)N[C@@H](CC(C)C)C(=O)N[C@@H](CC(C)C)C(=O)N[C@@H](Cc1c[nH]cn1)C(=O)N[C@@H](CC(C)C)C(=O)N[C@@H](Cc1c[nH]cn1)C(=O)N[C@@H](CC(C)C)C(N)=O
acute toxic concentration (zebrafish embryos 28 hpf, E3 medium; 1 h): 5 µM

CSCC[C@H](NC(=O)[C@@H](NC(=O)[C@H](CC(C)C)NC(=O)[C@@H](NC(=O)[C@H](Cc1c[nH]cn1)NC(=O)CCCCCNC(=O)[C@H](CCCNC(=N)N)NC(=O)[C@H](CCCNC(=N)N)NC(=O)[C@H](CCCNC(=N)N)NC(=O)[C@H](CCC(N)=O)NC(=O)[C@H](CCCNC(=N)N)NC(=O)[C@H](CCCNC(=N)N)NC(=O)[C@H](CCCCN)NC(=O)[C@H](CCCCN)NC(=O)[C@H](CCCNC(=N)N)NC(=O)CNC(=O)[C@@H](N)Cc1ccc(O)cc1)C(C)C)C(C)C)C(=O)N[C@@H](CS)C(=O)N[C@@H](C)C(=O)N[C@H](C(N)=O)[C@@H](C)O
serum Calcium (C57BL/6J mice; Alzet osmotic pump, 3 mg/kg, 8 weeks): 9 mg/dL and 9.8 mg/dL and 9.2 mg/dL

COc1ccc(CNc2ccc3c(c2)S(=O)(=O)C=C3)cc1
mean corpuscular haemoglobin concentration (male C57BL/6 mice, blood; intraperitoneal, 5 mg/kg, day 8, group average): 295 g/L

C=Cc1c(C)c2cc3nc(c(CC(=O)O)c4[nH]c(cc5nc(cc1[nH]2)C(C)=C5CC)c(C)c4C(=O)O)[C@@H](CCC(=O)NCCCC[C@H](NC(C)=O)C(=O)N[C@@H](Cc1ccccc1)C(=O)N[C@@H](Cc1ccccc1)C(=O)N[C@H](C(=O)N[C@@H](CC(C)C)C(=O)N[C@@H](CCCCN)C(=O)N[C@@H](CO)C(=O)NCC(=O)N[C@@H](CCC(N)=O)C(=O)N[C@@H](Cc1ccc(O)cc1)C(=O)N[C@@H](C)C(=O)N[C@@H](CO)C(=O)N[C@@H](Cc1ccc(O)cc1)C(=O)N[C@@H](Cc1c[nH]cn1)C(=O)N[C@@H](CS)C(=O)N[C@@H](Cc1c[nH]c2ccccc12)C(=O)N[C@@H](CS)C(=O)N[C@@H](Cc1c[nH]c2ccccc12)C(=O)N[C@@H](CCCNC(=N)N)C(=O)N[C@@H](CC(=O)O)C(=O)N1CCC[C@H]1C(=O)NCC(=O)N[C@@H](CCCNC(=N)N)C(=O)N[C@@H](CO)C(=O)NCC(=O)NCC(=O)N[C@@H](CO)C(=O)N[C@@H](CCCCN)C(N)=O)C(C)C)[C@@H]3C
TNF level (mouse, 4T1 breast tumour, serum; concentration not given, 21 days after single dose): 43.8 pg/mL and 37.9 pg/mL and 47 pg/mL

O=C1NC2(CC2)COc2ncc(F)cc2[C@H]2COCCN2c2ccn3ncc1c3n2
organ-to-body weight ratio (Sprague-Dawley rat, female, ovaries; oral, 20 mg/kg/day, 4 weeks, end of treatment): 0.041 ± 0.006%

CC[C@H](C)[C@H](NC(=O)[C@H](Cc1c[nH]c2ccccc12)NC(=O)c1ccccc1)C(=O)N[C@@H](CCCNC(=N)N)C(=O)N[C@@H](Cc1ccc(O)cc1)C(=O)N[C@@H](CCCCN)C(=O)N[C@@H](Cc1c[nH]c2ccccc12)C(=O)N[C@H](CCCNC(=N)N)C(=O)N[C@@H](CCCNC(=N)N)C(=O)N[C@@H](CCCCN)C(=O)N[C@@H](CCCCN)C(=O)N[C@H](C(=O)N[C@@H](CCCNC(=N)N)C(=O)N[C@@H](Cc1ccc(O)cc1)C(=O)N[C@@H](Cc1c[nH]c2ccccc12)C(=O)N[C@H](C(=O)NCC(=O)N1CCC[C@H]1C(N)=O)[C@@H](C)O)C(C)C
melting temperature (circular dichroism; phosphate buffer; 30 µM, pH 6.5): < 0 °C

CC[C@H](C)[C@H](NC(=O)[C@H](CCCCN)NC(=O)CNC(=O)[C@H](CC(C)C)NC(=O)[C@H](Cc1ccccc1)NC(=O)[C@H](CCCCN)NC(=O)[C@H](CO)NC(=O)[C@H](Cc1ccccc1)NC(=O)[C@H](Cc1c[nH]c2ccccc12)NC(=O)[C@H](CCC(N)=O)NC(=O)[C@@H](NC(=O)[C@H](Cc1ccccc1)NC(=O)CCCCCNC(=O)CN1CCN(CC(=O)O)CCN(CC(=O)O)CCN(CC(=O)O)CC1)C(C)C)C(=O)N[C@@H](CCC(=O)O)C(=O)N1CCC[C@H]1C(=O)N[C@@H](CC(=O)O)C(=O)N[C@H](C(=O)N[C@@H](CO)C(=O)N[C@@H](CCC(N)=O)C(=O)N[C@H](C(=O)N[C@@H](CCC(N)=O)C(=O)N[C@@H](CC(=O)O)C(=O)N1CCC[C@H]1C(=O)N[C@@H](CC(N)=O)C(=O)N[C@@H](CC(=O)O)C(=O)N[C@@H](CCC(N)=O)C(=O)N[C@@H](Cc1ccc(O)cc1)C(=O)N[C@@H](CCC(=O)O)C(=O)N1CCC[C@H]1C(=O)N[C@@H](Cc1ccccc1)C(=O)O)C(C)C)C(C)C [copper-64 labelled]
tissue uptake (C57BL/6 mice, heart; vehicle, intratracheal instillation): 1.09 ± 0.1 %ID/g

CSCC[C@H](NC(=O)CNC(=O)[C@H](CCCCN)NC(=O)[C@H](CC(C)C)NC(=O)[C@@H]1CCCN1C(=O)[C@H](CO)NC(=O)[C@H](Cc1c[nH]cn1)NC(=O)[C@H](Cc1c[nH]c2ccccc12)NC(=O)[C@H](CCCNC(=N)N)NC(=O)[C@H](CC(C)C)NC(=O)[C@H](CCCNC(=N)N)NC(=O)[C@H](Cc1c[nH]c2ccccc12)NC(=O)[C@H](CS)NC(=O)CCCCCNC(=O)CN1CCN(CC(=O)O)CCN(CC(=O)O)CCN(CC(=O)O)CC1)C(=O)O [copper-64 labelled]
tissue uptake (ex vivo biodistribution; BALB/c nude mice, bladder; intravenous, dose not given, 6 h, Huh-7 tumour-bearing): 1.34 %ID/g

C[C@H](O)[C@@H](NC(=O)[C@H]1CCCN1C(=O)[C@@H](CCCCN)NC(=O)[C@@H](CO)NC(=O)[C@@H](Cc1ccc(O)cc1)NC(=O)[C@@H](CC(N)=O)NC(=O)CCOCCOCCOCCNC(=O)CN1CCN(CC(=O)O)CCN(CC(=O)O)CCN(CC(=O)O)CC1)C(=O)N[C@H](CC(=O)O)C(=O)N[C@H](CCCNC(=N)N)C(=O)N[C@H](CCC(N)=O)C(=O)N[C@H](Cc1ccc(O)cc1)C(=O)N[C@H](Cc1c[nH]cn1)C(=O)N[C@H](Cc1ccccc1)C(N)=O [copper-64 labelled]
tissue uptake (C57BL/6J mice, muscle; intravenous, 1.85 MBq, 0.3333 h, radiolabelled): 0.9 ± 0.3 %ID/g

N=C(N)NCCC[C@@H](NC(=O)[C@H](N)Cc1c[nH]c2ccccc12)C(=O)N[C@H](CCCCN)C(=O)N[C@H](Cc1c[nH]c2ccccc12)C(=O)N[C@H](CCCNC(=N)N)C(=O)N[C@H](CCCCN)C(=O)N[C@H](Cc1c[nH]c2ccccc12)C(=O)N[C@H](CCCNC(=N)N)C(=O)N[C@H](CCCCN)C(=O)N[C@H](Cc1c[nH]c2ccccc12)C(=O)N[C@H](CCCNC(=N)N)C(=O)N[C@H](CCCCN)C(N)=O
survival (mouse; intraperitoneal, 30 mg/kg single dose, day 7): 100%

CC[C@H](C)[C@H](NC(=O)[C@H](CCCNC(=N)N)NC(=O)[C@H](CCCCN)NC(=O)[C@H](Cc1ccc(O)cc1)NC(=O)[C@H](CC(=O)O)NC(=O)[C@H](C)NC(=O)CNC(=O)CCOCCOCCOCCNC(=O)CN1CCN(CC(=O)O)CCN(CC(=O)O)CCN(CC(=O)O)CC1)C(=O)N[C@H](C(=O)N[C@H](C(=O)N[C@@H](CCCCN)C(=O)N[C@H](C(=O)N[C@@H](CC(N)=O)C(N)=O)C(C)C)C(C)C)[C@@H](C)O [copper-64 labelled]
tissue uptake (ex vivo gamma counting; male C57BL/6J mouse, B16-F10 tumour, intestinal lymph node; intravenous, 1.85 MBq, 100 min): 0.578 ± 0.104 %ID/g

CCCCCCCCCCCCCCCC(=O)N[C@@H](CCC(=O)NCCOCCOCCC(=O)NCCOCCOCCC(=O)NCCCC[C@H](NC(=O)[C@H](CC(=O)O)NC(=O)[C@H](CC(C)C)NC(=O)[C@H](Cc1ccc(O)cc1)NC(=O)[C@H](CCCCN)NC(=O)[C@H](CO)NC(=O)[C@H](Cc1ccc(O)cc1)NC(=O)[C@H](CC(=O)O)NC(=O)[C@H](CO)NC(=O)[C@@H](NC(=O)[C@H](Cc1ccccc1)NC(=O)[C@@H](NC(=O)CNC(=O)[C@H](CCC(N)=O)NC(=O)[C@@H](CO)NC(=O)[C@@H](N)Cc1c[nH]cn1)[C@@H](C)O)[C@@H](C)O)C(=O)N[C@@H](CCCNC(=N)N)C(=O)N[C@@H](CCCNC(=N)N)C(=O)N[C@@H](C)C(=O)N[C@@H](CCC(N)=O)C(=O)N[C@@H](CC(=O)O)C(=O)N[C@@H](Cc1ccccc1)C(=O)N[C@H](C(=O)N[C@@H](CCC(N)=O)C(=O)N[C@@H](Cc1c[nH]c2ccccc12)C(=O)N[C@@H](CC(C)C)C(=O)N[C@@H](CC(C)C)C(=O)N[C@@H](CC(N)=O)C(=O)N[C@H](C(=O)NCC(=O)NCC(=O)N1CCC[C@H]1C(=O)N[C@@H](CO)C(=O)N[C@@H](CO)C(=O)NCC(=O)N[C@@H](C)C(=O)N1CCC[C@H]1C(=O)N1CCC[C@H]1C(=O)N1CCC[C@H]1C(=O)N[C@@H](CO)C(N)=O)[C@@H](C)O)C(C)C)C(=O)O
AUC(0-inf) (rhesus monkey, plasma; subcutaneous, 60 µg/kg, single dose): 314 ng·h/mL

CC(C)C[C@H](NC(=O)[C@H](CCCNC(=N)N)NC(=O)[C@H](Cc1ccccc1)NC(=O)[C@H](Cc1ccccc1)NC(=O)[C@@H](N)[C@@H](C)O)C(=O)N[C@@H](Cc1ccccc1)C(=O)N[C@@H](CC(N)=O)C(=O)N[C@@H](CCCNC(=N)N)C(=O)N[C@@H](C)C(=O)N[C@@H](CCCCN)C(=O)N[C@@H](CCCNC(=N)N)C(=O)N[C@@H](Cc1c[nH]cn1)C(=O)N[C@@H](Cc1c[nH]cn1)C(=O)NCC(=O)N[C@@H](Cc1ccc(O)cc1)C(=O)N[C@@H](CCCCN)C(=O)N[C@@H](CCCNC(=N)N)C(=O)N[C@@H](CCCCN)C(=O)N[C@@H](Cc1ccccc1)C(=O)N[C@@H](Cc1c[nH]cn1)C(=O)O
peptide concentration (HPLC-UV; human saliva; 0.5 h, 37 °C, added: initial 1 mg/mL): 0.953 mg/mL

For quick reference, copied from above:
CSCC[C@H](NC(=O)[C@@H](NC(=O)[C@H](CC(C)C)NC(=O)[C@@H](NC(=O)[C@H](Cc1c[nH]cn1)NC(=O)CCCCCNC(=O)[C@H](CCCNC(=N)N)NC(=O)[C@H](CCCNC(=N)N)NC(=O)[C@H](CCCNC(=N)N)NC(=O)[C@H](CCC(N)=O)NC(=O)[C@H](CCCNC(=N)N)NC(=O)[C@H](CCCNC(=N)N)NC(=O)[C@H](CCCCN)NC(=O)[C@H](CCCCN)NC(=O)[C@H](CCCNC(=N)N)NC(=O)CNC(=O)[C@@H](N)Cc1ccc(O)cc1)C(C)C)C(C)C)C(=O)N[C@@H](CS)C(=O)N[C@@H](C)C(=O)N[C@H](C(N)=O)[C@@H](C)O
serum Calcium (C57BL/6J mice; Alzet osmotic pump, 3 mg/kg, 8 weeks): 9 mg/dL and 9.8 mg/dL and 9.2 mg/dL
